Results gathered from unrelated publications.
Each numbered part is a random draw from the data of one study; scales do not carry over between parts.

Block 1 — method: universal PBM; molecule type: double-stranded DNA, one strand shown; matrix: in vitro; concentration: 600 nM; reading: higher = stronger binding; measurement: E-score
Target: Sal-like protein 4, full length isoform A (SALL4, Homo sapiens, UniProt Q9UJQ4, residues 1-1053)
UniProt Q9UJQ4, sequence (whole entry, looked up): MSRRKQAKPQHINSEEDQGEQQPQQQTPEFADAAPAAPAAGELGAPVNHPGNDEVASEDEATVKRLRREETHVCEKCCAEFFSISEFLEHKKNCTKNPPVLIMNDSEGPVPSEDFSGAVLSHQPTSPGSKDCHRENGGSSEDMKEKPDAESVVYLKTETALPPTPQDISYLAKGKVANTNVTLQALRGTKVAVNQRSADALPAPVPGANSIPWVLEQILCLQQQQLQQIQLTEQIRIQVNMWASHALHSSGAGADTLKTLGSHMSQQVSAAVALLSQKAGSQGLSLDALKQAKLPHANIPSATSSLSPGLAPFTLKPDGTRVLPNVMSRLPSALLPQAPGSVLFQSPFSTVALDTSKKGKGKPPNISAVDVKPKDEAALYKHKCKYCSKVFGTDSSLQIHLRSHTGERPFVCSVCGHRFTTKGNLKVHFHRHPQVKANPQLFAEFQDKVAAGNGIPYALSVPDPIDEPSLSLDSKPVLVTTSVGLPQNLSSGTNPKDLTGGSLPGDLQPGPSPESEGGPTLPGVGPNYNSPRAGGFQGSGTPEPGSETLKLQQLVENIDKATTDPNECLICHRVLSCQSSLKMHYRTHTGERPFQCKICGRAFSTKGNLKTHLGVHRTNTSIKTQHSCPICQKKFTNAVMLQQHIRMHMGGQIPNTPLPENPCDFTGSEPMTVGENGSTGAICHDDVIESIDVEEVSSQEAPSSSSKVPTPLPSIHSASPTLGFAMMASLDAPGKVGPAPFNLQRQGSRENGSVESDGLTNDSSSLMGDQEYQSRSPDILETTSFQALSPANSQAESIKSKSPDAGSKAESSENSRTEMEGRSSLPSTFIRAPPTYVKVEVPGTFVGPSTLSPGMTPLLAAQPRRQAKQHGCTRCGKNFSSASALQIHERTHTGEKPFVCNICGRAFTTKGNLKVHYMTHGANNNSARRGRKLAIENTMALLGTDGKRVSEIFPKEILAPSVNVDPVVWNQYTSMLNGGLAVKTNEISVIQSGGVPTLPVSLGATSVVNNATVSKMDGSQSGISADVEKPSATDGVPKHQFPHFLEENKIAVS
Setting: 8-mer, flanks averaged, mean of replicates
ACGGCCCA: -0.207
AAATGGTA: 0.323
ACCACGCC: -0.215
ACCCAGTG: -0.237
AACAACCG: 0.0388
GTATTACA: 0.314
AGGAACAG: -0.087
AACACATC: 0.147
CCTCTTCG: -0.106
CTAAACGA: -0.0332
TACCGGTA: -0.00895
GGGGTTAA: -0.131
AGCGTACA: 0.007
ACCGTGTC: -0.195
GTGCCCAA: -0.173
CAATGCCC: -0.145

Block 2 — method: RNA Bind-n-Seq; molecule type: RNA; matrix: in vitro; concentration: not given; setting: RNA with constant flanks, ends assumed; reference: input RNA pool; reading: higher = stronger binding; measurement: bound/input enrichment
Target: RING finger protein unkempt homolog, zinc fingers 1-6, GST-SBP tag (UNK, Homo sapiens, UniProt Q9C0B0, residues 30-357)
Target sequence (chain): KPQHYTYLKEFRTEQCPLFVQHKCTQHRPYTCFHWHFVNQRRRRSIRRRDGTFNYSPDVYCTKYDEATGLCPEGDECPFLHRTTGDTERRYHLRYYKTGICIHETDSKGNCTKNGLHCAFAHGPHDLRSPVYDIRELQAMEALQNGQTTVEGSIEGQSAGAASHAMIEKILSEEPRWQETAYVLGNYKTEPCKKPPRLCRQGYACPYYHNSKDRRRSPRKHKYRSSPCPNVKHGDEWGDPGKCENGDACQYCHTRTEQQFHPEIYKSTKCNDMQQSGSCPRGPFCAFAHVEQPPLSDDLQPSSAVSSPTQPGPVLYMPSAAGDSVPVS
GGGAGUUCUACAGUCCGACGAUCGAGGAUAAUCCAUUUGCAGAGUACAUGUGGAUGGAAAAUGAAGAGGAAUUCAACAGACAAACCGAAGAGGAGUUGUGGGAAGAAGAAUUUAUUGAACGCUGUUUCCAAGAAAUGCUGGAACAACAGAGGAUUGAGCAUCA: 0.32 ratio
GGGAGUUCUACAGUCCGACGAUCCGGAGUCGGGAGGCUGAGUGUUCAUUCCAGCAUGUCGGAAGGGGAGUCCCAAACAGCCGUCAGCAGUGGCUCAGACCCAAAGGUAGAAUCCUCAUCUUUAGCUCCUGGCCUGACUUCUGUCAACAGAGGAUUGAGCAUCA: 0.175 ratio
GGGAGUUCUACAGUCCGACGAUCUUCUUUCCCUUUUUCUUUCAGAGCUGUUGCGCAGCCAUUGGUACCUGUAUUGGGGAAACACCGCAUACAAGCAAGAAGCUUACAGCCUCAGUGGCGAAAAUUUUUUCAUGUCAGAGACCGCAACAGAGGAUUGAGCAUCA: 0.279 ratio
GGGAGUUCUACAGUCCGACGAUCGCUGAUUUUGAGAAGGUUUUCUGCAUUGGACCAGUUUUCAGAGCUGAAGACUCCAAUACCCACCGACAUCUGACUGAAUUUGUUGGUUUGGAUAUUGAAAUGGCCUUUAAUUAUCAUUACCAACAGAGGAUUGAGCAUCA: 0.214 ratio
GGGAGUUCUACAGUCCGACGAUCAAACCUUCAACUGUAGAAGUUCUAGAAAGUAUAGAUAAGGAAAUUCAAGCAUUGGAAGAAUUCCGGGAAAAAAAUCAGAGAUUACAAAAAUUAUGGGUUGGAAGAUUAAUUCUGUAUUCCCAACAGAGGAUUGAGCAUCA: 3.71 ratio
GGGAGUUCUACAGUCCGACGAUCAGGAGCGCGCCAUGGCGGUGUCCGAGAGUCAGCUGAAGAAGAUGAUGUCCAAGUACAAAUACCGAGAUCUAACCGUCCGUCAAACUGUCAAUGUCAUCGCUAUGUACAAAGAUCUCAAACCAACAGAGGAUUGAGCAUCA: 0.0646 ratio
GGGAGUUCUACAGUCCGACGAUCGUCAGCCAGUCACUACAGCAUUACCUGGAGCUGGGACGGCAAGAACUUUUCAAGAUUCUACACCGUAUUUUGUUAAAUGGCGAAACUCGUGAAGCGGCUCUCAGCUACAUGGCGGCCCUUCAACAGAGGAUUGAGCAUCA: 0.298 ratio
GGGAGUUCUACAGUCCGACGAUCCAGGGACGUUUUGAUGUAAAAAUUGAAGUUAAGAGCUGAUCACAAGCACAAAUCUUUCCCACCCGCCAUUUAAUAAGUUAAAAAAAGAUACAAAAACAAAAACCUACUAGUCUUGAACAACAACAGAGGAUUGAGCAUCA: 2.75 ratio
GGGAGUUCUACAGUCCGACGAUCAUAAUAAAAGCUUCCAGCAAAGAUGCCAUCAGGCUUUUGGAUUCCGUGCCUCCCACUGCCAUCCGUCACUUCAAACAAUCAGCUGAGAAGCUGAUAGAGGAGAAGGGAGCUGUGGAAGCUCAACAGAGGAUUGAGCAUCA: 0.0949 ratio
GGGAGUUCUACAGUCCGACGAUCGGAGAGGCCCUGCAUUGCCAGCUGUCCGUUCCUCCAUUCAUCUGUUUCUUCUGCUGCCCUCCGUUUGAUCCUCACCAUCCACGUUUUGGCUUCCGUUUGCCCUUAUCAAAGGGUCUCUGCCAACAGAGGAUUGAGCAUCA: 0.136 ratio
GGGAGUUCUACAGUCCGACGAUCAAAUAUUUUGAGAAUUCAGCUGAAACAGACAUUCCAAAAAUCACCAAAAAACUAUCUCAACCCGGAGAAUCAGAGCUUUUUGCAAGUUCUGGAUCAUUUUCAUUACAGAGCUCUAUACCACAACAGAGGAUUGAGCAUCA: 0.205 ratio

Block 3 — method: RNA Bind-n-Seq; molecule type: RNA; matrix: in vitro; concentration: 200 nM; setting: whole 134-nt RNA, ends assumed; added: 150 mM LiCl; reference: input library; reading: higher = stronger binding; measurement: log2 enrichment; library: 7-deaza-guanosine replaces G
Target: Ras GTPase-activating protein-binding protein 1, full length (G3BP1, Homo sapiens, UniProt Q13283)
UniProt Q13283, sequence (whole entry, looked up): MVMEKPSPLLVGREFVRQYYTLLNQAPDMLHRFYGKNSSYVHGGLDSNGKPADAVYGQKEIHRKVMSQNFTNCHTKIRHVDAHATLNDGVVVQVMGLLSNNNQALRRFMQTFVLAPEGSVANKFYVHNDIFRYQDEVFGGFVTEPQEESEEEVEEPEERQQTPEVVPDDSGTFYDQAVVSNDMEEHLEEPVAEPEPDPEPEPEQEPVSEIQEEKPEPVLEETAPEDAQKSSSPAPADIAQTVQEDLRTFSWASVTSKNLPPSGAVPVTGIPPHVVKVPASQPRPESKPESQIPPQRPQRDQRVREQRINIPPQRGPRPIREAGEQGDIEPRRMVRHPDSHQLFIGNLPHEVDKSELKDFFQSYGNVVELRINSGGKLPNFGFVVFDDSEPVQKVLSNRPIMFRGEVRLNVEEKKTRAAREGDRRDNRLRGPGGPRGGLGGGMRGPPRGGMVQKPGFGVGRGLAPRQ
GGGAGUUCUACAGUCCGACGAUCCCUGUGCUACACAUCGUAUGUACCGAAUCGGGAAAAAAGGGGAAAAAAGGGAAAAAAGGGGAAAGUAUUAUGUUACGCCGUUCGGAUCUGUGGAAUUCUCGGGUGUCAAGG: 0.519
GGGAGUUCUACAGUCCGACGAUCAGUCCUGUGCUACACAUCGUAUGUACCGAAUCGGUUUUUGGUUUUUGGGGUUUUUGGAAAGUAUUAUGUUACGCCGUUCGGAUCUGCACUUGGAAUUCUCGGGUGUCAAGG: -0.901
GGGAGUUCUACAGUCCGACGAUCCACAGACAACACGCACCCACACAGACACAGAGAGAAGGGGUUGGGAUGGGGACAGGGUGCACAGCAGGGCGGGGUAGGACCCCAGCCCCUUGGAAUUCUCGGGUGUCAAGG: 0.78
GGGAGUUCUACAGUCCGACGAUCUGGGAGGUGGAUUUUGUUUAUUUUUUUAGCUCAUUUCGAGGGGUGGGAAUUUUUUUUUAAUAUGUGUCAUGAAUAAAGUUGUUUUUGAAAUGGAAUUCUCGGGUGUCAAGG: 0.449
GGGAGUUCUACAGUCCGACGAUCUAACUUUAGAGGAGGAUCUGAUGGAUAUGGCAGUGGCCGUGGAUUUGGGGAUGGCUAUAAUGGGUAUGGAGGAGGACCUGGAGGUGGCAAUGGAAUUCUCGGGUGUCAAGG: -0.533
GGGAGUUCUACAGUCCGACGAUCUGGGAGGUGGAUUUUGAUUAUUUUUUUAGCUCAUUUCCAGGGGUGGGAAUUUUUUUUUAAUAUGUGUCAUGAAUAAAGUUGUUUUUGAAAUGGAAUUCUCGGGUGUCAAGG: -0.99
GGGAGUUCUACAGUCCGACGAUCUCGGCUACACUGCCCGGAGAAUUCUCAAUGAGGAUGGCAGCCCUAACCUGGACUUCAAGCCUGAAGACCAGCCCCAUUUUGACAUCAAGGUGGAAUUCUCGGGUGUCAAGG: -0.751
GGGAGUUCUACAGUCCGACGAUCUUGUGGGAGGAUUUUGAGAUACUUAUUCUUUAUUUGAGCCAGUCUUGCAAGGUUAACUUCUCACUGGGCCUAGUGUGGUGCCCAGGUUUUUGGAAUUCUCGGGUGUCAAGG: -2.02
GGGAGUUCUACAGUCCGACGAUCCAUGUUGAAAGACAUGCUUUUAUUUUUUUGUAAAACAAUAUAGGAGCUGUGUCUACUAUUAAAAGUGAAACAUUUUGGCAUGUUUGUUAAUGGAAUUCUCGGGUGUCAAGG: -3.27
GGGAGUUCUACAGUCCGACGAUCUCAAGUCCUGUGCUACACAUCGUAUGUACCGAAUCGGGGUUGGGGUUGGGUUGGGAAAGUAUUAUGUUACGCCGUUCGGAUCUGCACUUCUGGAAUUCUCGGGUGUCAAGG: -0.252
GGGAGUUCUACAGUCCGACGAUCGCAGGAAGUAAAAACAAAUGGAAAUGCUUCGGAUAGUGGCAGGGGUGCGGGUUGCUAAGGAAAGGGUGGGAUGGGAGUGGGUAAAGAGUUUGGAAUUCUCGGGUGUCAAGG: 0.0916

Other studies, line by line
PhoQ, residues 284 288 289 292 302 303 SSTLLI
fold induction (PhoP, residues 12 14 15 18 19 FWNTL (Escherichia coli, UniProt P23836); Sort-seq, measured: YFP reporter; E. coli; PhoQ-PhoP variant library, added: 10 µM Mg2+; reference: high Mg2+ state, higher = stronger signaling): 6.23

Repeated from above (block 3):
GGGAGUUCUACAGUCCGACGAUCUCAAGUCCUGUGCUACACAUCGUAUGUACCGAAUCGGGGUUGGGGUUGGGUUGGGAAAGUAUUAUGUUACGCCGUUCGGAUCUGCACUUCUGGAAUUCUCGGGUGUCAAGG: -0.252
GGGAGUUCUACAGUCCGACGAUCCAUGUUGAAAGACAUGCUUUUAUUUUUUUGUAAAACAAUAUAGGAGCUGUGUCUACUAUUAAAAGUGAAACAUUUUGGCAUGUUUGUUAAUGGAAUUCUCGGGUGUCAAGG: -3.27
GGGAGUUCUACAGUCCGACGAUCUUGUGGGAGGAUUUUGAGAUACUUAUUCUUUAUUUGAGCCAGUCUUGCAAGGUUAACUUCUCACUGGGCCUAGUGUGGUGCCCAGGUUUUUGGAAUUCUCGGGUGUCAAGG: -2.02
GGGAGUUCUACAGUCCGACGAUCCACAGACAACACGCACCCACACAGACACAGAGAGAAGGGGUUGGGAUGGGGACAGGGUGCACAGCAGGGCGGGGUAGGACCCCAGCCCCUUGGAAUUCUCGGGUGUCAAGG: 0.78
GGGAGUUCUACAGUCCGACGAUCAGUCCUGUGCUACACAUCGUAUGUACCGAAUCGGUUUUUGGUUUUUGGGGUUUUUGGAAAGUAUUAUGUUACGCCGUUCGGAUCUGCACUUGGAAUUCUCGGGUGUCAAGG: -0.901
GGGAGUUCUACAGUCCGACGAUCCCUGUGCUACACAUCGUAUGUACCGAAUCGGGAAAAAAGGGGAAAAAAGGGAAAAAAGGGGAAAGUAUUAUGUUACGCCGUUCGGAUCUGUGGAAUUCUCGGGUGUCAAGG: 0.519
